Published values gathered from unrelated publications.
Protocols differ between the studies behind these lines. Several values in a cell are separate wells, animals, samples, runs or records.
Cell line: COLO 205

CC(=O)Nc1cccc(-n2c(=O)n(C3CC3)c(=O)c3c(Nc4ccc(I)cc4F)n(C)c(=O)c(C)c32)c1  fractional effect (cell viability, resazurin; 100.00 nM, 72 h; reference: DMSO): 0.904 and 0.928
Cc1cc(=O)[nH]n1-c1nc(-c2ccc(Cl)cc2)c2c(NC(=O)c3ccccc3)nnc-2[nH]1  cell growth (SRB; 10 µM, NCI60 single-dose screen, colon cancer; reference: untreated): 120%
O=C1NCCc2[nH]c(-c3ccncc3)cc21  IC50 (MTS; colon cancer): > 10000 nM
Cc1cc(-c2ccccc2)n(-c2nc(-c3ccc(Cl)cc3)c3c(NC(=O)c4ccccc4)nnc-3[nH]2)n1  cell growth (SRB; 10 µM, NCI60 single-dose screen, colon cancer; reference: untreated): 124%
Cn1cncc1C1=CN(c2ncnc3[nH]cnc23)CCS1  TGI (colon cancer): 75900 nM
S=C([S][Au-][P+](CCCCCC[P+]([Au-][S]C(=S)n1cccn1)(c1ccccc1)c1ccccc1)(c1ccccc1)c1ccccc1)n1cccn1  log TGI (cell growth, NCI-60 screen; colon cancer): > -4 log10 M
C#C[C@@]1(O)[C@@H](CO)O[C@@H](n2ccc3c(N)ncnc32)[C@@H]1O  TGI (SRB; NCI-60 screen): 2670 nM
CCn1cc(-c2cc(Cn3ccnc3)cc3c2CCN([C@H](c2cc(OC)ccn2)C2CC2)C3=O)c(C(F)(F)F)n1  EC50 (cell growth, inhibitor; 120 h): 239 nM
Cn1cc(-c2ccc(-c3cncc(Cl)c3N3CCC4(CCNC4=O)CC3)cc2)cn1  log2 fold change (gene expression, microarray, item: IFIT3 mRNA; concentration not given, 6 h; reference: untreated cells): 2.21
C[C@]12CCCN1CC1=NNC(=O)c3cc(F)cc4[nH]c2c1c34  EC50 (with: temozolomide): > 3000 nM
COc1cnc2cccc(N3CCc4c(cc(Cn5ccnc5C)cc4-c4cn(C)nc4C(F)(F)F)C3=O)c2c1  EC50 (cell growth, inhibitor; 120 h): 2540 nM
